Experimental data collected from several papers.
A part holds a random share of what one study measured. Changes are numbered by the printed parent chain.
Chain of UniProt Q9LQE8 (whole entry, looked up): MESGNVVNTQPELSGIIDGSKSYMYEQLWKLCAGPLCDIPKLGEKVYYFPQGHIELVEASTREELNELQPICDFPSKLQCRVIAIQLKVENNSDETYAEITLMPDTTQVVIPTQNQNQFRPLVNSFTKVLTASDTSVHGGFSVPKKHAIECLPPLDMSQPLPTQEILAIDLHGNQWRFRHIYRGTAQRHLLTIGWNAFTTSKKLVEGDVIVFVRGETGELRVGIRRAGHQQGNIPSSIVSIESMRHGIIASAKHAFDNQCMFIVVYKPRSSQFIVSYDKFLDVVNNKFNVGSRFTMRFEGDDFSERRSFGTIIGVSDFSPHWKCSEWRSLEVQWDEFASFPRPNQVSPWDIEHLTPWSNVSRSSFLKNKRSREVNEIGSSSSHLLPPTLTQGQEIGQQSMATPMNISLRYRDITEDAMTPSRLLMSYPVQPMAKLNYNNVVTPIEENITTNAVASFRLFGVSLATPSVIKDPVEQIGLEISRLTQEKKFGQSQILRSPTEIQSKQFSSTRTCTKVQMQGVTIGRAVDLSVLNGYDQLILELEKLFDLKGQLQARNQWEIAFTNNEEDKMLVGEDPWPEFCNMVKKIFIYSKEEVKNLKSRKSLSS
Chain of UniProt Q9FGV1 (whole entry, looked up): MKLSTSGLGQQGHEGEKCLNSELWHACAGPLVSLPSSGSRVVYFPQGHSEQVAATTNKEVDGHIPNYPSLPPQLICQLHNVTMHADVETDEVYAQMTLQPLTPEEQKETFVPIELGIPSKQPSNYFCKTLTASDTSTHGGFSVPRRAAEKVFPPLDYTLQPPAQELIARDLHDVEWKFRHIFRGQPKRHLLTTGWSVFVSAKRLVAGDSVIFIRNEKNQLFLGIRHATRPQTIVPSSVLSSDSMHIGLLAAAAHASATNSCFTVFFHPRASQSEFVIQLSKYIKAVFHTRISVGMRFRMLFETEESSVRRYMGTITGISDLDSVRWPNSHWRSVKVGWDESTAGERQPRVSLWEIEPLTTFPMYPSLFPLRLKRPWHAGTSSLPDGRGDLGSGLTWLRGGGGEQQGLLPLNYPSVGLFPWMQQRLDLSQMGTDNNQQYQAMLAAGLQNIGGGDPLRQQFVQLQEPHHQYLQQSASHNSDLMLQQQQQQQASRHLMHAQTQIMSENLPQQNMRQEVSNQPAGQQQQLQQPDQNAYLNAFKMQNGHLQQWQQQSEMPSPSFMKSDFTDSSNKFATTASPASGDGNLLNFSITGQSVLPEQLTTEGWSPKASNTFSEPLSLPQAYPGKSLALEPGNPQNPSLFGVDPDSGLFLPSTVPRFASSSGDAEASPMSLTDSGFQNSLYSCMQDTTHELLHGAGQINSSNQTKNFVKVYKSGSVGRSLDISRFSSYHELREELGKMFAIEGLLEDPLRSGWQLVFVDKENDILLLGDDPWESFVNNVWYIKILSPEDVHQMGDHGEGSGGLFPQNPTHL
Chain of UniProt Q93WC4 (whole entry, looked up): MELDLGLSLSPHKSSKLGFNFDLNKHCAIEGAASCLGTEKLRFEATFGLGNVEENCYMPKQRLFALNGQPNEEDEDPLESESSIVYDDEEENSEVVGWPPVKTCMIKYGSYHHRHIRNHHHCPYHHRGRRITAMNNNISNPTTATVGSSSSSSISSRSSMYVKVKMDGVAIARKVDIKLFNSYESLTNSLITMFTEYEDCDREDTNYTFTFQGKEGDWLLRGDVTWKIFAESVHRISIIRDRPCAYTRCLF
Chain of UniProt Q9XED8 (whole entry, looked up): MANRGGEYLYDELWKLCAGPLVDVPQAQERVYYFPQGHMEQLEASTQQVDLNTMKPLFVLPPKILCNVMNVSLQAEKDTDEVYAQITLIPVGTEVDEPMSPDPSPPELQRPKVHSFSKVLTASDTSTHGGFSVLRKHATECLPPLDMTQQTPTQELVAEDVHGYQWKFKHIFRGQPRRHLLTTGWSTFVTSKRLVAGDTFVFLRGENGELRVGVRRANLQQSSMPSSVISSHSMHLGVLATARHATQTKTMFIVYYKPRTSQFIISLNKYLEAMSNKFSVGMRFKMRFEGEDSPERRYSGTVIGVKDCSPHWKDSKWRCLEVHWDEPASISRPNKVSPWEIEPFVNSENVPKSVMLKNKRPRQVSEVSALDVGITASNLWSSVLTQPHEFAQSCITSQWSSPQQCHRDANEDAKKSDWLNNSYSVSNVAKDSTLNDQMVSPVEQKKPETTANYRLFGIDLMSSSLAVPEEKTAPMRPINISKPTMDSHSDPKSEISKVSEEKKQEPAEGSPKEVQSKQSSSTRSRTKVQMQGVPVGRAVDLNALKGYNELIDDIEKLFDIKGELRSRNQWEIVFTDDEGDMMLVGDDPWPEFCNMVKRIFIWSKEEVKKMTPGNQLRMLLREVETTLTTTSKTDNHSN
Chain of UniProt P93830 (whole entry, looked up): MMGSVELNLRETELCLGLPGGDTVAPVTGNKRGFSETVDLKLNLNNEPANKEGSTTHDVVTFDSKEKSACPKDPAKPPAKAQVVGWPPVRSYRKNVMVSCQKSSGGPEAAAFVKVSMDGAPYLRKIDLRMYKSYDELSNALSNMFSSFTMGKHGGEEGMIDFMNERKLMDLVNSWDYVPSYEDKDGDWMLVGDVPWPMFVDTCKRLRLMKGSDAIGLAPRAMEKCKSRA

Block 1
Target: RNA binding protein fox-1 homolog 2, RRM domain, GST-SBP tag (RBFOX2, Homo sapiens, UniProt O43251-10, residues 100-194)
Method: RNA Bind-n-Seq
Form: RNA
Medium: in vitro
Tested at: 365 nM
Setting: natural RNA segment, single round, ends assumed
Relative to: no-protein control
Reading: higher = stronger binding
All sequences stand within: GGGAGUUCUACAGUCCGACGAUC … UGGAAUUCUCGGGUGCCAA
Target sequence (chain): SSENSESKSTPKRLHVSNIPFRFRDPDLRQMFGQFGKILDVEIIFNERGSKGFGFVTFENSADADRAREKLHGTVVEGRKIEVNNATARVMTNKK
| Oligonucleotide | RBNS enrichment (R) |
| --- | --- |
| UCUUCACCACUGGACUGCGGGAGGCGGCUGCACCAGGCCCUCAGUGGAGCGCUGCUGUGACCACUGCCCUGGGCAGAAGGCCUGGAUGUCUCACUACUGAGCACCGAUGU | 0.393 |
| UUGAAAUAUUUAUAUUCCCAUCGGUGUGUUUAGUCCUAGAAAAUUGCUAGCAGCAGUCUUCUUCACAGUGCCUUGGGAAAAGACAUUUCAAGAGGAAACUUGAUAAUUUU | 0.341 |
| CUGAUGUUUGUUUUCGAUGAGGUUCCAUGUUUUGUUUUCUUGGGAAUAAAUUAAUAUAUUGUUUUCCACUUCGGGGAUACUGUGUAUUUUUAUAUGACAAUUGGUUAAAA | 1.21 |
| UGUCCUGCCAUUAAGAGAGGUCAGGAUUGCACCUGAAGGGUAUGGUGGGCACCCAGGCUGUGAAGGAACAAGAUGAGUGGAGCGGCCAGCAGUGGCAAGUCAAGGGAAGC | 0.921 |
| CCAGCUCCCCUCAACGCUAUAUUUUGACACUAAAAAAGAAGGUUUCUAAAUUGUAGGAGCAGGAUGGAAAUACUUUGCUGCCCUUGCCAUCUUUUAGGAUGGGCCCCCAG | 0.866 |
| AACCUCCAGGCAGGAACCGGCUCGCCACCCUCUGCCCGGUAAGGGCUGCCCAAGAAAGCAUUACCCGCCCUCGGGGGGUCGGGCUGUGGGGGUCCCGGCACCUGGCGUGA | 0.344 |
| GGGGCUACUUUUUUCCCUCUAAACUAAAAAAGACAUUGGCUGAAUUAUAACUAGUUAGUUAUCACCUCGUCCCUUAAAGUCAGUGACCUCCUGUGUUUGAUGUAUAUUAC | 0.686 |
| GACUGACAUCCCAGGUGUCACAGGCUCAGGGAGUGGCACCAGGUCACCUCUCCAGGGACUGAGCAUCAUUGGCUCAUUGUCAUGGGGAGCUCCCUCCUGACCACGGAGGC | 0.354 |
| UCAUUUUUGCUCAUUUAAUUCUAUAAAUUCUCUUUAUAAAUGAAUUUUGUGUUCUUUAGUUCUCCUUAAAAGAACUUUUGAAUUAUAAAAAUAAAAUCUUUACCUGUCGA | 0.742 |
| AGGCAUGAUCCUCUAUGGACACUAACUUACCCCAUGUCCACCUUUGCCCAAAAACACUGAAACUGUGCUCUCUGCCACCUGCCCCCCACGCUUUUUCUUUUUCUCUCUUU | 0.961 |
| CCUCCAGCUGGGUGUGGGGGGGCGGAGCAAGGCGGGGGACAGACGCAGCACCUUCUUAGCGAUCUAGGCCUGGCAAGAGCUCUGGCCCCAAGGCCUCCUCUUCCCAGGGG | 2.43 |
| UUAAUUCUCAUUAUAUUUCUAUACUGAAAGAAGAUUUUUAACGAAGGGAAAAACAACAGCAAUAACAUUCAUAUCUCUGGAGCAGCUAACUCAUACACGUAAUGUCUGCU | 0.321 |

Block 2
Target: Ras GTPase-activating protein-binding protein 1, RRM domain (G3BP1, Homo sapiens, UniProt Q13283)
Chain of UniProt Q13283 (whole entry, looked up): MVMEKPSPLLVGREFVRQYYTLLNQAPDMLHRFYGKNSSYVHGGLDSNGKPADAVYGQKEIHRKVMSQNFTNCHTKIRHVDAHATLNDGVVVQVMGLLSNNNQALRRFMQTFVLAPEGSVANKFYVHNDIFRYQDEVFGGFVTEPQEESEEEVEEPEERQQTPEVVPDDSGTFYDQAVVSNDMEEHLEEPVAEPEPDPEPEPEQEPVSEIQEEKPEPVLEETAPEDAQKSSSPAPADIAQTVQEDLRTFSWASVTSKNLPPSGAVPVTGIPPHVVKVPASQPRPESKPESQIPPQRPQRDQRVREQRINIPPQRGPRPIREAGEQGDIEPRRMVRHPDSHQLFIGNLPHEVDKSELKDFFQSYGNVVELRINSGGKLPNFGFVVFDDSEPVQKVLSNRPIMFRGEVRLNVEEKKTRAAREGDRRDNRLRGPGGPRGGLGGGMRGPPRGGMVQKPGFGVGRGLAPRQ
Method: RNA Bind-n-Seq
Form: RNA
Medium: in vitro
Tested at: 1 µM
Setting: whole 134-nt RNA, ends assumed
Together with: 150 mM KCl
Relative to: input library
Reading: higher = stronger binding
All sequences stand within: GGGAGUUCUACAGUCCGACGAUC … UGGAAUUCUCGGGUGUCAAGG
| Oligonucleotide | log2 enrichment |
| --- | --- |
| UUCCAUUGUGAACGUGCCUGGUGAGUCUACUCUUCGCCGAGAUUUCCUGAGACUGCAGCAGGAGAACAAGGAACGUUCCGAGGCUCUUCG | 0.0316 |
| AGUCCUGUGCUACACAUCGUAUGUACCGAAUCGGUUUUUGGUUUUUGGGUUUUUGGGGAAAGUAUUAUGUUACGCCGUUCGGAUCUGCAC | -0.176 |
| AGUCCUGUGCUACACAUCGUAUGUACCGAAUCGGGGAGGGGUUUUUUUGGGGAGGGGAAAGUAUUAUGUUACGCCGUUCGGAUCUGCACU | 0.986 |
| AGUCCUGUGCUACACAUCGUAUGUACCGAAUCGGGAAAAAGGAAAAAGGAAAAAGGGGAAAGUAUUAUGUUACGCCGUUCGGAUCUGCAC | 0.000119 |
| CCUGUGCUACACAUCGUAUGUACCGAAUCGGGGCCCCCGGGGCCCCCGGGGCCCCCGGGGAAAGUAUUAUGUUACGCCGUUCGGAUCUGC | -0.981 |
| UGUGCUACACAUCGUAUGUACCGAAUCGGGUUUUUUUGGGGUUUUUUUGGGUUUUUUUGGGGAAAGUAUUAUGUUACGCCGUUCGGAUCU | -0.0592 |
| UAACUUUAGAGGAGGAUCUGAUGGAUAUGGCAGUGGACGUGGAUUUGGGGAUGGCUAUAAUGGCUAUGGAGGAGGACCUGGAGGUGGCAA | -0.366 |
| GUCCUGUGCUACACAUCGUAUGUACCGAAUCAAACCCCCCCAAAUUUUUAAACCCAAAAAAGUAUUAUGUUACGCCGUUCGGAUCUGCAC | -0.407 |
| CCUCAAGUCCUGUGCUACACAUCGUAUGUACCGAAUCGGGUGGUGGGUGGGGAAAGUAUUAUGUUACGCCGUUCGGAUCUGCACUUCCAG | 0.259 |
| UUGGGUUCAAUAUACGGAGAGUGCCCUGUGCCAAAGCCACGAGUUGAUCGUCCAAGAAAAGUUCCUGUGAUACAAGAGGAGAGGGCAAUG | -0.291 |

Block 3
Target: CCND3, cyclin fold, Cln2 fusion (human)
Method: yeast growth competition, sequencing
Medium: yeast
Setting: weak parent motif
Relative to: not given
Reading: higher = stronger binding
Starting sequence: ANKRD17 docking peptide (human); PSVRRQLFVTVVK
| Change | normalised enrichment score |
| --- | --- |
| PSVRRQLFATVVK [V9A] | 0.113 |
| PSVRKQLFVTVVK [R5K] | -0.0897 |
| PSVRAQLFVTVVK [R5A] | 0.241 |
| PSVRRQLFVTAVK [V11A] | 0.21 |
| PSVRRQLFVAVVK [T10A] | 0.202 |
| PSVRRALFVTVVK [Q6A] | 0.0702 |
| PSVRRQLFVTVAK [V12A] | 0.202 |

Block 4
Target: ABI1, truncated, D143A, DHFR fusion (Arabidopsis thaliana)
Method: DHFR PCA, deep sequencing
Medium: yeast
Setting: methotrexate growth selection, single substitutions
Together with: (+)-ABA 1.4 µM
Relative to: wild-type fitted maximum
Reading: higher = stronger binding
Starting sequence: PYL1, truncated, DHFR fusion (Arabidopsis thaliana); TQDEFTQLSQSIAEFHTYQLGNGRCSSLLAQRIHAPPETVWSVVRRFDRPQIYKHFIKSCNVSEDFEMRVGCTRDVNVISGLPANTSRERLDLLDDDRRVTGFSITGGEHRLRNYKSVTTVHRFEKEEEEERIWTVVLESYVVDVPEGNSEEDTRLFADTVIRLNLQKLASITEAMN; partner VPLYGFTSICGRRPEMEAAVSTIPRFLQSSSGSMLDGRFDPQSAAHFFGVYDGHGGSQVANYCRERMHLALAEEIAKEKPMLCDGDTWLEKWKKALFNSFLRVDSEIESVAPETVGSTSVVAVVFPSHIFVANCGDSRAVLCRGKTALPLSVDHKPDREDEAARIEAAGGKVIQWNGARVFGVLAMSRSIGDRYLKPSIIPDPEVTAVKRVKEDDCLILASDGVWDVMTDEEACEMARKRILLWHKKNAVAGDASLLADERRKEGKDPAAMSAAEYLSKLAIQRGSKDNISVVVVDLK
| Change | relative binding score [%] |
| --- | --- |
| D159I | -13 |
| S171T | 63.5 |
| L164N | -1.29 |
| S140M | 9.24 |
| C72H | 18.2 |
| P36Q | 27.2 |
| T17M | 18.1 |
| Q51S | 10.9 |
| S59C | 22.2 |
| S42E | 61.1 |
| S26D | -22.3 |
| H55G | 65.5 |
| I172A | -3.81 |
| I162P | 0.598 |
| L28M | 58.2 |
| K58Q | 41.6 |
| V136W | 27.6 |
| M68D | -9.43 |
| E139M | 22.6 |
| T119P | -4.58 |
| R88M | 27.5 |
| L94G | -2.38 |
| N177D | 57.9 |
| K116F | -2.25 |

Block 5
Sequence: B1 (IAA10)
Method: two-hybrid
Reading: higher = firmer interaction
B1: IAA10 (Arabidopsis thaliana, UniProt Q38828); chain MNGLQEVCSSSGSVMIGLPAEEDENAAHSSEDSSCPDESVSETELDLALGLSIGRRKVRSSLSSSSSSLTRESGTKRSADSSPAAASNATRQVAVGWPPLRTYRINSLVNQAKSLATEGGLSSGIQKETTKSVVVAAKNDDACFIKSSRTSMLVKVTMDGVIIGRKVDLNALDSYAALEKTLDLMFFQIPSPVTRSNTQGYKTIKETCTSKLLDGSSEYIITYQDKDGDWMLVGDVPWQMFLGSVTRLRIMKTSIGAGVGK
| partner | setting | how to read | positive tests |
| --- | --- | --- | --- |
| ARF9 519-638 (Arabidopsis thaliana, UniProt Q9XED8) | weak activation fusion | relative to: out of 4 tests | 2 |
| IAA29 (Arabidopsis thaliana, UniProt Q93WC4) |  | relative to: out of 4 tests | 0 |
| ARF14 497-605 (Arabidopsis thaliana, UniProt Q9LQE8) |  | relative to: out of 2 tests | 0 |
| ARF8 699-811 (Arabidopsis thaliana, UniProt Q9FGV1) |  | relative to: out of 4 tests | 4 |
| IAA17 (Arabidopsis thaliana, UniProt P93830) |  | relative to: out of 4 tests | 3 |

Block 6
Target: PABPC1L2, full length, GST fusion (mouse, UniProt A0ABA7IW68)
Method: RNAcompete
Form: RNA
Medium: in vitro
Tested at: 20 nM
Setting: 7-mer, probes averaged, single round
Relative to: mean of 7-mers
Reading: higher = stronger binding
Target sequence (chain): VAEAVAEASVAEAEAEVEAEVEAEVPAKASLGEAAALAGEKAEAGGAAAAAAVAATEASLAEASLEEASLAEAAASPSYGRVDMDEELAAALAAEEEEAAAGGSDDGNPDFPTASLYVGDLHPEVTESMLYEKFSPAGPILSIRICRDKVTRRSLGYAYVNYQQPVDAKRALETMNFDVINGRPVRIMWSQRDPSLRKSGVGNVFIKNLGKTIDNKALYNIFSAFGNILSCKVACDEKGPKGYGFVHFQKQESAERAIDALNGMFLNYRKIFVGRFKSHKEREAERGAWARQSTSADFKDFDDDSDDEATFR
| Oligonucleotide | 7-mer Z-score |
| --- | --- |
| CUAGAGA | 0.0225 |
| AGCACGG | 0.066 |
| UGUGAGA | -0.188 |
| GUCGAUU | -0.36 |
| GCGCGGA | 0.0315 |
| GCAAUGA | 0.133 |
| ACUUAAG | -0.0409 |
| CUCAACG | -0.278 |
| AAAACAA | 9.26 |
| AUCGGUA | -0.112 |
| GUAACGA | 0.0388 |
| GCGAGUA | -0.153 |
| UUCGUUU | -0.634 |
| GUAAUCA | -0.179 |
| UACGGCC | -0.155 |
| GGGUCCA | 0.0968 |
| CCGAGGG | -0.079 |

Excerpt of the above (block 3):
| Change | normalised enrichment score |
| --- | --- |
| PSVRRQLFVTVAK [V12A] | 0.202 |
| PSVRRQLFVAVVK [T10A] | 0.202 |
| PSVRKQLFVTVVK [R5K] | -0.0897 |
| PSVRRALFVTVVK [Q6A] | 0.0702 |
| PSVRRQLFATVVK [V9A] | 0.113 |
| PSVRAQLFVTVVK [R5A] | 0.241 |
| PSVRRQLFVTAVK [V11A] | 0.21 |
